Experimental data pooled from the literature.
Each numbered part is a random draw from the data of one study; scales do not carry over between parts. Substitutions count along the parent as printed.

Study 1
Target: Prothrombin, mature alpha-thrombin (F2, Homo sapiens, UniProt P00734)
Method: aptamer microarray, sandwich
Form: DNA with 2'F-ANA
Sample: in vitro
Concentration: 200 nM
Setting: whole 15-mer aptamer, many near background
Together with: Cy3 exosite-II aptamer, 400 nM
Direction: higher = stronger binding
Sequence: GGTTGGTGTGGTTGG
Modification	mean fluorescence intensity [a.u.]
2'F-ANA at 1 2 4 5 6 8 11 14 15	47.1
2'F-ANA at 4 5 7 8 10 14 15	48.7
2'F-ANA at 2 3 10 13	468
2'F-ANA at 1 2 3 4 9 11 15	173
2'F-ANA at 1 2 6 12 13 14	60.1
2'F-ANA at 5 7 8 9 12 15	170
2'F-ANA at 4 5 7 9 11 12 13 14	47.4
2'F-ANA at 1 2 3 7 8 9 11 14	76.9
2'F-ANA at 1 2 3 8 10 11 12 13 15	91.1
2'F-ANA at 2 4 5 7 9 10 12 13	73
2'F-ANA at 2 3 6 8 14	464
2'F-ANA at 2 3 7 8 10 11 12 14	283
2'F-ANA at 1 2 5 6 9 10 11 14 15	52.6
2'F-ANA at 3 5 6 14	49.3
2'F-ANA at 3 4 5 6 7 8 9 15	94.5
2'F-ANA at 4 5 8 10 11 12 13 14	45.9
2'F-ANA at 1 4 5 6 7 10 12 14	48.8
2'F-ANA at 1 2 6 8 10 12 13 14 15	51.4
2'F-ANA at 1 2 4 5 6 7 10 14 15	46.3
2'F-ANA at 2 5 6 7 8 9 11 13 15	109
2'F-ANA at 1 5 8 9 11 12 13 14	46.6
2'F-ANA at 1 2 4 6 8 10 11 13 14	69.5
2'F-ANA at 1 4 8 15	229
2'F-ANA at 2 3 8 9 10 12 13 15	410
2'F-ANA at 4 5 6 7 8 9 10 11 13	49

Study 2
Target: CCNE2, cyclin fold, Cln2 fusion (human)
Method: yeast growth competition, sequencing
Sample: yeast
Setting: strong parent motif
Reference: not given
Direction: higher = stronger binding
Starting sequence: CDKN1B docking peptide (human); PSACRNLFGPVDH
Change	normalised enrichment score
PSACRNLFTPVDH [G9T]	1.2
PSACRVLFGPVDH [N6V]	3.04
PSACRNPFGPVDH [L7P]	0.13
PSACRILFGPVDH [N6I]	1.59
PSACFNLFGPVDH [R5F]	-0.0895
PYACRNLFGPVDH [S2Y]	0.314
PSACRNLFGPVSH [D12S]	0.876
PSACRGLFGPVDH [N6G]	0.421
PSAKRNLFGPVDH [C4K]	1.27
PSACRNLFGCVDH [P10C]	1.58
PSACRNLFGPNDH [V11N]	1.28
PSACRNLPGPVDH [F8P]	-0.103
PSACANLFGPVDH [R5A]	-0.308
PSACRNLFWPVDH [G9W]	0.301
PSACRNLFGPVDL [H13L]	1.57
PSACRNLFGPVDF [H13F]	2.02
PSACRNLFGPVDI [H13I]	1.35
VSACRNLFGPVDH [P1V]	1.37
PSACRNLFLPVDH [G9L]	0.811

Study 3
Target: RING finger protein unkempt homolog, zinc fingers 1-6, SBP tag (UNK, Homo sapiens, UniProt Q9C0B0, residues 30-357)
Chain of UniProt Q9C0B0 (30-357, looked up): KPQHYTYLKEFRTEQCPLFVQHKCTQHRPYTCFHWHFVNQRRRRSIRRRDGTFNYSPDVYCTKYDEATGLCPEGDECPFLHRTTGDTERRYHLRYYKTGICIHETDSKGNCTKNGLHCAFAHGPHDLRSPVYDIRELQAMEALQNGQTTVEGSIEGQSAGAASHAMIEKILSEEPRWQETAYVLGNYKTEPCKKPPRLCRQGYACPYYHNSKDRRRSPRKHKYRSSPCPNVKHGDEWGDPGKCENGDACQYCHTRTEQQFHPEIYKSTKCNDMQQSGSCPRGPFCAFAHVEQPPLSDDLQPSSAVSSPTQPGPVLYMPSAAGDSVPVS
Method: RNA Bind-n-Seq
Form: RNA
Sample: in vitro
Concentration: 100 nM
Setting: RNA with constant flanks, vertebrate orthologous sites, ends assumed
Reference: input RNA pool
Direction: higher = stronger binding
Shared flanks, not repeated: GGGAGUUCUACAGUCCGACGAUC … CAACAGAGGAUUGAGCAUCA
Sequence	bound/input enrichment [ratio]
AAAUAUACUUCAUGCCAUGGACUCCGUACCGCACGGAUACUUUGAUAGAAUAUGCUUCUCUGGAGGACUUCCAGAACGGACGCCAGCAGACGACGUACAAGCUCCCAAACCGAGUGGACG	0.64
CCGAAAGGCCAAAUUCCCUCCUCCCUUCUACUGCUUCUACCAACUGGAAGCACAGAAAACUAGAAUUUCAUUUAUUUUGUUUUUUAAAAAUAUACGUUGAUUUCUUGUAACAUUCAGUAG	0.625
CAUAAAAUAUUGGAUGCAGUGUAUAAAUUAUCCAAGGCAGUGACUUCAGCUUUAUAUAUAUUGUUAGUUUUAAAGUCAUCUACUUUUAUUUAAACUUCUAGAUUGGACUAUUUGCUAUUG	0.572
CUCCCCGUUAUUCAUGAAAUACAACUUUUUAAAAUUGUGUUGCCACCACUUGUAAAAAAUAACAAAAACAAAACAAAAAAAAAAAACCCAGCAAUAUUAGAAUAAGAUGCUAAUGAAGUC	0.741
UCUCCUAGCUCAUACCAGCAUCUUCGCUAUCAGACGUGCACAGCUUACAAAGGAACAGUCUAGUGGUAUUUUUUUAAUUUAAAACCUGCUUUUCCCAAGACUGAAAAAGAAGCUACGAUU	0.997
UGCAUUAUUUGACAAGAGUUGAAGUGACAGAAUUUGAAGAUAUUAAAUCAGGUUACAGAAUAGAUUUUUAUUUUGAUGAAAACCCUUACUUCAAAAAUAAAAUUAGCUCCAAAGAAUUUC	0.296
CUACACCAGAUACUUAAACUGUUUUAAAGUUACAAACAAGCUUUGCUUUUUGCAUUUAAAUAGAAUACUUUUAUAUUGUAAGUGCUUCAAAUGUGUGGAGAUGUUAGUUUGCUCUUAUAA	0.514
GGGACGCUUUGAUGUAAAAAUUGAAAUUAAGAGCUGAUCACAAGCACAAAUCUUUCCCACUAGCCAUUUAAUAAGUUAAAAAAAGAUACACAAACCUACUAGUCUUGAACAAACUGUCAU	2.56
UUACAGUCAUUGAUGGACUCUAUUUUUUUAUUAUUACUUGGACCUUGGUCGUUUUUAUACUAGCAAAAUGUCUUGUUUUAAUUUGUGUUUUUUUUGGGGGGGGGGAGGGAGUGAACUUGC	3.05
CCAGUCUUCCACUUAGGGUCGGCCUCAAAUCUAUAGGAUUUAUGACAAAUGUAUUAGAUCUAGUUGAGUUUCAUAUUUUUUUAUUAGCCUGUAAAUAAAGAUGGCAUUACAUUAAAAUGG	0.85
GUGUGUGUGCGUGUGUGUGUGUGGGUUUGGGGGGGGCAAGCAGGCGGAAUCUCUAGGGUGUGUGGUAGUAGGAAGCACAGUUCUAAGUGGGCCUUUAUGUUAAACACCUCUGGUAGUGUC	0.809

Study 4
Target: Histone acetyltransferase KAT6A, winged helix 2, GST fusion (KAT6A, Homo sapiens, UniProt Q92794, residues 85-181)
Method: protein binding microarray
Form: double-stranded DNA, one strand shown
Sample: in vitro
Concentration: not given
Setting: 8-mer, flanks averaged, mean of 2 arrays, mostly near background
Reference: not given
Direction: higher = stronger binding
Target sequence (chain): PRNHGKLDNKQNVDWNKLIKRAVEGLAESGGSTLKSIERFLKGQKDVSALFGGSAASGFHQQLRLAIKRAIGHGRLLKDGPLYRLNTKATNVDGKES
Sequence	E-score
CATAATCA	-0.0618
GCTAGGTA	-0.097
AAGGCACT	0.0602
ACTCAGCC	-0.0471
ATTGCATA	0.0547
CGCAGCAG	0.147
TGCGCACA	0.106
AACGGAAC	-0.0176
GCCTTTCC	0.136
CAAACACA	0.125
CATGTGGA	-0.146
GACTGTGA	-0.112
GGCGGCTA	0.142
AGGCTACC	-0.0333
ACCCCAAC	-0.0237
ATGTAGAA	-0.145
ATCTTGTA	0.00995
ACTCTAGC	-0.0686
AATACTGA	-0.133
TACGACAA	0.0312
ACCCAGAA	0.0502
ATCAATCA	0.0518
AACTCTAA	-0.0371

Study 5
Target: RNA binding protein fox-1 homolog 2, RRM domain, GST-SBP tag (RBFOX2, Homo sapiens, UniProt O43251-10, residues 100-194)
Method: RNA Bind-n-Seq
Form: RNA
Sample: in vitro
Concentration: 365 nM
Setting: natural RNA segment, single round, ends assumed
Reference: no-protein control
Direction: higher = stronger binding
Shared flanks, not repeated: GGGAGUUCUACAGUCCGACGAUC … UGGAAUUCUCGGGUGCCAA
Residues (chain): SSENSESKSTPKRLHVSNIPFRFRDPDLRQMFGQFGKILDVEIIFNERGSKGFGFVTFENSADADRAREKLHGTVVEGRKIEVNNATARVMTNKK
Sequence	RBNS enrichment (R)
GACGUGCCCUGUUGUAUCCUGACAAACCUUAAGCAGUUGAAACCAGUGUCGGCUAAGGCCUUCCUAGCUCUGGAGGUGACAGGGGAACCUCCAGGUGGAGGAACCACACG	0.287
ACGAUGCGAGCCUUCCGGUCAGUGACGUGUGGGCAGAAGCGCACGGAGCCUGCCUGCCUCUGCCGUCCUCAGUUUCCUUUCAUGAGGCUUCUAGCCAAAGAUGAUAAAGG	0.577
GCUUGUUUGAUCUGUUUUCUGUAACUUUUGCUAAAUACUUUAUACAUUUUUCAUGUUAAAGAGCCGUGUCUCCCGCCAGCACUCCUCACCCCGGUAUGAAUGUGUUUCCU	5.03
CUUGGUCUCUCUGCAGUUCUGGGGACCCAACCAAGAGUCACGUGUCUAGGCCAGUGCUUUACCACUUAGCUAUACCCAGUCCUGUGUUACCUUGCUUUUGUGAACACGUC	0.304
UUAGAUCCCAGGAGUCACAGCAGAGCCUUGCAGUCAUUUCACAUGCGCAGACUCUGGAGAGAGCAAACCUGCCAUGGGCUACAGAUCCCAAUACCUCUGAGGGUCAGAAC	0.269
UAGUUCUGUACAUGUGGCUGGAUUUAAAUAUCCUGUUUUUGAUACUAAUUUUGAAAGUCAUGUAACUUCUUUUGAUAUCUGGGCAAAAGUAACCAUAUGCUAUAAGCAUU	0.269
AAACUAAAGGCAAUAACAGAAGCUGCUCUCAGAGCCUGACUGUGCACAAAACACUAGUGAAGCCUGCUGAACUAAUUCUGCCUCUGGAAAUCUUUUCUGGUUCUUUACAG	0.228
GUUUACUCUCCUUCUAGCUUUCUGCUUACCGCACACUGGAUAACACACACAUACACACCCACAAAAAUGCUCAUGAACCCAAUCCGGAGAAGGUUCCAGCAGGUCCCCCA	0.658
UUACUUUAUUAAGAUUUUACAGCGAAACCCUUACAUGAGUAAUUGAAAUGAAAUUAAAUGAGAUUACAGCAUAAUGAAGAAGAAAACUAGAAUCUAACAGGUAUGACACA	0.425
UGGGCUACAGAGGAGCAAGCAAGCACUUCAGACUGACCAAAGGUUGUGGUGGCCCACAUGGCUCUGCCCAGUGUCCUGUGCUUUGCCACAGUCCUCUGGGGUCAGUGUCU	0.176
UGCUGUAAGAUUGUAUUCUGUAUAUAUGUUUUCAUGUAAAUAAAUGAAAAUCUAUAUCAGAGUUAUAUUUUAAUUUUUAUUCUAAAUGAAAAAAACCCUUUUUACUUCAA	1.49
UUCUUAAGUUUUUUAUCUCCAGAUCCUAAUUUAUGCCUAUGCAAAAAAUAAAUGACGCCCAAGAGCUUGGGAUGUGGCUUUCAUGUGGCUUUUGCCUAUCACCUAGGGCA	0.848

Study 6
Target: PABPC1L2, full length, GST fusion (mouse, UniProt A0ABA7IW68)
Method: RNAcompete
Form: RNA
Sample: in vitro
Concentration: 20 nM
Setting: 7-mer, probes averaged, single round
Reference: mean of 7-mers
Direction: higher = stronger binding
Residues (chain): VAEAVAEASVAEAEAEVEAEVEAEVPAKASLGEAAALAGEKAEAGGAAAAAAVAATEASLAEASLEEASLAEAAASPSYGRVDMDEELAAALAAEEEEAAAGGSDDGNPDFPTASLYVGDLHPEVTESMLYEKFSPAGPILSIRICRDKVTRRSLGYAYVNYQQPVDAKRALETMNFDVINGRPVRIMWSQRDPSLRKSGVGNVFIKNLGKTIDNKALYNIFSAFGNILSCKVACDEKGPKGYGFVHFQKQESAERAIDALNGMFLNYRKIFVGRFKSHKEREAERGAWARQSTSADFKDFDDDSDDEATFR
Sequence	7-mer Z-score
CGCAACC	-0.269
AACAGUC	0.532
CAGGCGG	0.16
CACUGAG	0.193
UGCGGCG	-0.0482
UGAACCU	-0.213
UGUGCGA	-0.0718
CGUGCAU	-0.0772
AUUAGGU	0.0986
UGUGACG	-0.0754
UGCCCAA	-0.115
CAAUCCC	-0.387
CCUACAG	-0.322
UUACGAU	-0.103
AGAGAAU	0.0279
CUGACGG	-0.155
GACCAUG	0.0279
AGCAGGA	0.164
GUUGCGG	-0.0536
GCGCUGU	-0.266
UUGUCGU	-0.394
UCUUCAC	-0.356
AGGGUUG	0.0605
CCACUUA	-0.249

A few entries again (study 6):
Sequence	7-mer Z-score
UGUGACG	-0.0754
UGCCCAA	-0.115
CAAUCCC	-0.387
CCUACAG	-0.322
UUACGAU	-0.103
AGAGAAU	0.0279
CUGACGG	-0.155
GACCAUG	0.0279
